Measurements of several laboratories.
Every numbered part comes from another study and shows a few of its results, in no order. Several values in a cell are separate wells, animals, samples, runs or records.
UniProt P49336, sequence (whole entry, looked up): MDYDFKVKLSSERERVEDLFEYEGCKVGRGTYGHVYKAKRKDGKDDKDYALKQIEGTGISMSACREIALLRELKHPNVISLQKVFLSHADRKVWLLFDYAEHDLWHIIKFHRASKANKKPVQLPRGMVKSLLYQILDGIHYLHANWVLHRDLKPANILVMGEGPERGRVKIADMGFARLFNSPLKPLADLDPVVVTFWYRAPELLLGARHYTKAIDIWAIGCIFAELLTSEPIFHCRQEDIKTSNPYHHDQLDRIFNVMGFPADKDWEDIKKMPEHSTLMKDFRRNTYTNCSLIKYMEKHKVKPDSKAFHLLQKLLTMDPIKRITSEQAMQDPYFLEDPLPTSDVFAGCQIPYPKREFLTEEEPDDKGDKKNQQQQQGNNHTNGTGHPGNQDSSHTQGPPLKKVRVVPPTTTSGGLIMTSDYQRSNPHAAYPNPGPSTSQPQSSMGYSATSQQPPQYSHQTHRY
UniProt P49761, sequence (whole entry, looked up): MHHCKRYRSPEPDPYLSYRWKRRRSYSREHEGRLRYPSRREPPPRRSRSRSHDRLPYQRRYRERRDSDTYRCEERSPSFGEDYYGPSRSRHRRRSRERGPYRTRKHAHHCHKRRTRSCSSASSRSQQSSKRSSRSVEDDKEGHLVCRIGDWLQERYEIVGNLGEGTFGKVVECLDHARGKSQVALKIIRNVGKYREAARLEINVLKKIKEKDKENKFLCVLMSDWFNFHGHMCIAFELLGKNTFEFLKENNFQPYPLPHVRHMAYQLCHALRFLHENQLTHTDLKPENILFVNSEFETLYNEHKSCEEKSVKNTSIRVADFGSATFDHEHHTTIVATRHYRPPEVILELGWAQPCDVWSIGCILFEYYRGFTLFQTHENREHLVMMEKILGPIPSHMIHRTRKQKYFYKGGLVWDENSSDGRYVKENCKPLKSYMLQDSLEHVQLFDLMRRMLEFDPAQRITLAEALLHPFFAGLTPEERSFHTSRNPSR
UniProt Q00526, sequence (whole entry, looked up): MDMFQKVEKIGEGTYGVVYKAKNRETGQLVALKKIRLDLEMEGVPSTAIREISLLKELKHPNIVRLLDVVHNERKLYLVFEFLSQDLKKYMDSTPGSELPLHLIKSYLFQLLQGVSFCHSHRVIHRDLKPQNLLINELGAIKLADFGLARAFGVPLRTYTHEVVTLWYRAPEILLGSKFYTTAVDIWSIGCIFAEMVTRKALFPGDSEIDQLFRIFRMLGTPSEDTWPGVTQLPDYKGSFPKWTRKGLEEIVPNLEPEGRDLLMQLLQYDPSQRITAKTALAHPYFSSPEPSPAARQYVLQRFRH
UniProt P06213, sequence (whole entry, looked up): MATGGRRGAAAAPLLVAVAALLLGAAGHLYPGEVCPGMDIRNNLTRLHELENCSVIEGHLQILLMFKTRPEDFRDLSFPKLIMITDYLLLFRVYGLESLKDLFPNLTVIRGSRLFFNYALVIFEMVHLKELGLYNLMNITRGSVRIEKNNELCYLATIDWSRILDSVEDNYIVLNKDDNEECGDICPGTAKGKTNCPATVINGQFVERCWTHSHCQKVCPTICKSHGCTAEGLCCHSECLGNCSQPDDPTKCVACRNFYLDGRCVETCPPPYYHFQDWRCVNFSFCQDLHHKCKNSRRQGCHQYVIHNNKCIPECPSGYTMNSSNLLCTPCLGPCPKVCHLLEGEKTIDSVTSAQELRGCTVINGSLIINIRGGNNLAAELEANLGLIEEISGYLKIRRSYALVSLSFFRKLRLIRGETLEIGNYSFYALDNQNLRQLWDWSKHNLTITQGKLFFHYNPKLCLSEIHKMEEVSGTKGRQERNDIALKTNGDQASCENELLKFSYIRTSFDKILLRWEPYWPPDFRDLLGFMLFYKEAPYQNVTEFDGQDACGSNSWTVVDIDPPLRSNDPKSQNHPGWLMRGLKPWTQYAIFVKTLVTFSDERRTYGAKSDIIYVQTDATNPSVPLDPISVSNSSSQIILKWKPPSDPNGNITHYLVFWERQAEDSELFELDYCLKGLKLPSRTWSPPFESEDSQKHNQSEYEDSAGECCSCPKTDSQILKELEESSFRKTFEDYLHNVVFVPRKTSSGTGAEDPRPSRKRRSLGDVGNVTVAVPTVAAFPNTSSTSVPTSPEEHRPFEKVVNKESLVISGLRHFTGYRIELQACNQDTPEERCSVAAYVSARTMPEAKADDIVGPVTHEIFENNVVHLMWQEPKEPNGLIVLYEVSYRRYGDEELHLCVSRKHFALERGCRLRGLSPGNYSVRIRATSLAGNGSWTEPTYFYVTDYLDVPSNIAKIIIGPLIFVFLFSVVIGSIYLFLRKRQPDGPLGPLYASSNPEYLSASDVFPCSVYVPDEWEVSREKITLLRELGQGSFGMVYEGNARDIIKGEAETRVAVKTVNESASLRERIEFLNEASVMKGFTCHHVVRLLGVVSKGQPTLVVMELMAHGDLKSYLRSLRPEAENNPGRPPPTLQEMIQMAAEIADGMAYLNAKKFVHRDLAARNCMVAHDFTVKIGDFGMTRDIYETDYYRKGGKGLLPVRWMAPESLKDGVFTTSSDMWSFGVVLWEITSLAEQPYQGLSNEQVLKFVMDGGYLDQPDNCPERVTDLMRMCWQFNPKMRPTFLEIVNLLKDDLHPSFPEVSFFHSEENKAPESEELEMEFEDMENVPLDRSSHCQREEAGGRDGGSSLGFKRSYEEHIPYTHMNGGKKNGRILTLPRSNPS
UniProt Q8NFD2, sequence (whole entry, looked up): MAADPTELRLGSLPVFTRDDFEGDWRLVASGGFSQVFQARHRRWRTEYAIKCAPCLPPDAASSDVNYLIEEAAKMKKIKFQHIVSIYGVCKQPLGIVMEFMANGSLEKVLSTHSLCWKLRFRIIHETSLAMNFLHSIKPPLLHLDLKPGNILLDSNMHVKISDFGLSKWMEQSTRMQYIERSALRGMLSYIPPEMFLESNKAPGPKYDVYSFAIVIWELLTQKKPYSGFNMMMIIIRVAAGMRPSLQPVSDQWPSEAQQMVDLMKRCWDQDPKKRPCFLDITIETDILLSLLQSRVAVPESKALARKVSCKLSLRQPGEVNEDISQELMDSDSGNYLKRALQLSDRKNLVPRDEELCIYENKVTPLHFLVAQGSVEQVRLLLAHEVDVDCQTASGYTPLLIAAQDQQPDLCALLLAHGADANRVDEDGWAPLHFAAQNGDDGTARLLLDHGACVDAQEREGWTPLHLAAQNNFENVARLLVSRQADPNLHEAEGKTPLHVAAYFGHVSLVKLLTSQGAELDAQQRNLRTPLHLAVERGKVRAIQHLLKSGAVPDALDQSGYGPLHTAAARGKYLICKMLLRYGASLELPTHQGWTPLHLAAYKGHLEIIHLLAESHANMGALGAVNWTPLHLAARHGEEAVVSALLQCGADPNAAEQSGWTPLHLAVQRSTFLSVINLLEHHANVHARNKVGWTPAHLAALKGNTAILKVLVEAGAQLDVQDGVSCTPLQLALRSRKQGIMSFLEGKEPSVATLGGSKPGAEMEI
UniProt O14965, sequence (whole entry, looked up): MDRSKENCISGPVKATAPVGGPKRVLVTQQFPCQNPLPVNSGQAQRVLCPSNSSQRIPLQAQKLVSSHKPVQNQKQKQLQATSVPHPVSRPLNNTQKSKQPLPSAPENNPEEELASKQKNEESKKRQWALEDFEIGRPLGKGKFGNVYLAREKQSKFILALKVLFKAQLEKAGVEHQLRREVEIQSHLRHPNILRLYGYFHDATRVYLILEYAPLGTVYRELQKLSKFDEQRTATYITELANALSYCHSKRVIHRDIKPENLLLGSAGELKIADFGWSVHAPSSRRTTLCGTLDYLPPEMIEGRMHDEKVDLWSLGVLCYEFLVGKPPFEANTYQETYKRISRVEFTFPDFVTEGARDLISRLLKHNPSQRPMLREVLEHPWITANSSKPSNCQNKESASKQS

Sample 1 — read-out: enzyme activity; action: inhibitor; concentration: 0.5 µM; baseline: control
Target: Ribosomal protein S6 kinase beta-2 (RPS6KB2, Homo sapiens, UniProt Q9UBS0)
UniProt Q9UBS0, sequence (whole entry, looked up): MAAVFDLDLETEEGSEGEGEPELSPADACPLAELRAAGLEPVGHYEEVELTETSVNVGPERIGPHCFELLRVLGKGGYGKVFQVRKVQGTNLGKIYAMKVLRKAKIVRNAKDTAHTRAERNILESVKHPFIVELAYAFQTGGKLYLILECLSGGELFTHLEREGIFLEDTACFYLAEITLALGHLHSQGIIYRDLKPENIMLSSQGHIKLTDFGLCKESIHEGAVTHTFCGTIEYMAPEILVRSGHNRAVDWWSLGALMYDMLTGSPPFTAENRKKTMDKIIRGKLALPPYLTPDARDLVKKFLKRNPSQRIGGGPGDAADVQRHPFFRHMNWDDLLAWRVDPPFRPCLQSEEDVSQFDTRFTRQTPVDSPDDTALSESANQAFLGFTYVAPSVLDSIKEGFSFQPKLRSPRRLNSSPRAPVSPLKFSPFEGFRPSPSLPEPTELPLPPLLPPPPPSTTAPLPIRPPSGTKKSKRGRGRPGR
SMILES	remaining activity [%]
Oc1cccc(-c2nc(N3CCOCC3)c3oc4ncccc4c3n2)c1	95.8
COc1ccc2c(c1)c(C1=C(c3c[nH]c4ccccc34)C(=O)NC1=O)cn2CCCN(C)C	65.4
O=C1Nc2ccc(Br)cc2/C1=C/c1cc2c([nH]1)CCCC2	102
CCCCc1c(-c2ccc(OC)cc2)[nH]c2nccnc12	99.7
O=C1Nc2ccccc2/C1=C\c1c(Cl)[nH]c2ccccc12	99.4
COc1cccc(-c2cc(=O)c3ccccc3o2)c1N	84.5
CCCNC(=O)Nc1ccc(Oc2ncnc3cc(OC)c(OC)cc23)cc1Cl	104
CN(C)S(=O)(=O)c1ccc2c(c1)/C(=C/c1cc3c([nH]1)CCCC3)C(=O)N2	92.6
O=C1Cc2c([nH]c3ccc(Br)cc23)-c2ccccc2N1	99.4
O=C(c1cc2cc(O)ccc2[nH]1)c1cc2cc(O)ccc2[nH]1	102

Sample 2 — method: UPLC-MS/MS metabolomics; species: C57BL/6 CES1-/- mice, EL4 tumour; medium: EL4 tumour; route: subcutaneous; dose: 0.3 mg/kg/day DON equivalent; time: 5 days; notes: normalised to tissue mass
Structure (SMILES): CC(=O)N[C@@H](Cc1c[nH]c2ccccc12)C(=O)N[C@@H](CCC(=O)C=[N+]=[N-])C(=O)OC(C)C
measured	peak intensity
N6-carboxymethyllysine	2.96e+06 a.u. and 1.73e+06 a.u. and 2.34e+06 a.u. and 2.46e+06 a.u. and 2.37e+06 a.u. and 1.71e+06 a.u.
N6-acetyllysine	7.84e+06 a.u. and 4.56e+06 a.u. and 4.68e+06 a.u. and 6.64e+06 a.u. and 3.59e+06 a.u. and 5.17e+06 a.u.
O-methyltyrosine	495000 a.u. and 939000 a.u. and 501000 a.u. and 877000 a.u. and 747000 a.u. and 958000 a.u.
S-1-pyrroline-5-carboxylate	1.3e+06 a.u. and 2.49e+06 a.u. and 2.05e+06 a.u. and 1.86e+06 a.u. and 2.33e+06 a.u. and 1.74e+06 a.u.
UDP-galactose	1.33e+06 a.u. and 4.44e+06 a.u. and 4.93e+06 a.u. and 3.3e+06 a.u. and 1.41e+06 a.u. and 918000 a.u.
cis/trans-aconitate	2.59e+06 a.u. and 1.26e+06 a.u. and 2.68e+06 a.u. and 1.06e+06 a.u. and 2.27e+06 a.u. and 1.19e+06 a.u.

Sample 3 — read-out: cell-free assay; method: competition with immobilised ligand; concentration: 0.1 µM
SMILES: Cn1nc(C(=O)NCc2ccc(C(=O)O)cc2)cc1-c1ccc2[nH]ccc2c1
target	remaining binding [%]
DDR1 (Homo sapiens, UniProt Q08345)	89
ANKK1 (Homo sapiens, UniProt Q8NFD2)	100
KIT (Homo sapiens, UniProt P10721, D816H)	81
Insulin receptor (INSR, Homo sapiens, UniProt P06213)	100
CDK8 (Homo sapiens, UniProt P49336)	100
SRC (Homo sapiens, UniProt P12931)	100
CSNK2A1 (Homo sapiens, UniProt P68400)	68
CLK3 (Homo sapiens, UniProt P49761)	95
EPHB6 (Homo sapiens, UniProt O15197)	96
MET (Homo sapiens, UniProt P08581)	100
BRSK1 (Homo sapiens, UniProt Q8TDC3)	86
IRAK1 (Homo sapiens, UniProt P51617)	93
Tyrosine-protein kinase ABL1, phosphorylated (ABL1, Homo sapiens, UniProt P00519, T315I)	71
SIK2 (Homo sapiens, UniProt Q9H0K1)	90
CDK3 (Homo sapiens, UniProt Q00526)	88
MAPKAPK5 (Homo sapiens, UniProt Q8IW41)	89
Aurora kinase A (AURKA, Homo sapiens, UniProt O14965)	100

Sample 4 — species: human; medium: microsomes or S9; concentration: 2 µM; time: 0.5 h
Structure (SMILES)	remaining compound
CC(C)c1ccccc1NC(=O)N1CCC[C@H]2C(=O)NC[C@H]21	76.1%
Cc1ccc(-n2nncc2-c2ccc(O)cc2O)cc1	> 100%
N#Cc1ccccc1COc1ccc2c(c1)OCO2	55.4%
Cc1cc(C)c(S(=O)(=O)N(C)C2(C)CCS(=O)(=O)C2)c(C)c1 (stereo not shown)	1.4%
CN(C)CCOc1cc(N2C(=O)c3ccccc3S2(=O)=O)ccc1Cl	> 99%
Cc1n[nH]c(-n2ccc3nc4ccn(CCc5ccccc5)c(=O)c4cc3c2=O)n1	82.6%
O=c1cc(-c2ccccc2)oc2ccccc12	8.1%
CCOC(=O)CCCc1nc2cc(N)ccc2n1C	1.79%
CC(C(=O)Nc1ccc2c(c1)CCC2)n1nc(-c2ccc3c(c2)OCCO3)ccc1=O (stereo not shown)	13.1%
CNC(=O)c1nnn2c1[nH]c(=O)c1c(C)c(C)sc12	84.4%
